Experimental data gathered from unrelated publications.
Compare with care: the assays were run in different laboratories. ± marks the error that the study gave.
Target: Serine/threonine-protein kinase PLK1 (PLK1, Homo sapiens, UniProt P53350)

With O=C(Nc1ccc(Oc2ncnc3[nH]cc(-c4ccccc4)c23)c(F)c1)c1c2n(n(-c3cc(F)ccc3F)c1=O)CCCC2 the inhibition was 15% (enzyme activity, inhibitor; 0.5 µM).
NC(=O)C[C@H]1CCc2sc3ncnc(O[C@H]4CC[C@H](N5CCOCC5)CC4)c3c21 gave an inhibition of 3% (enzyme activity, inhibitor; 10 µM).
With C=CC(=O)N1CCCC(n2c(=O)c3ncccc3n(Cc3ccc(Oc4ccccc4)cc3)c2=O)C1 (stereo not drawn) the remaining binding was 73% (cell-free assay, competition with immobilised ligand; 1 µM).
Cc1cccc(O[C@H]2CCC[C@@H](C(C)CNCc3ccncc3)C2)c1 (relative stereo) gave an inhibition of -4% (enzyme activity, inhibitor; 10 µM).
For CC(=O)N1c2ccc(-c3ccc(CNC(=O)c4cn5cc(-c6cnc(N)nc6)nc(N6CCOCC6)c5n4)cc3)cc2CC[C@@H]1C, the remaining binding was 94% (KINOMEscan; 10 µM).
For COc1ccc(NC(=O)Nc2ccc3c(c2)C(=O)N(C(C)CO)CC(C)C(CN(C)Cc2ccc4c(c2)OCO4)O3)cc1 (stereo not drawn), the remaining binding was 39% (binding, competition with immobilised ligand; 10 µM).
CC[C@H](C)[C@H](NC(C)=O)C(=O)N[C@@H](CC(=O)O)C(=O)N1CCC[C@H]1C(=O)N1CCC[C@H]1C(=O)N[C@@H](CC(C)C)C(=O)N[C@@H](Cc1c[nH]cn1)C(=O)N[C@@H](CO)C(=O)N[C@H](C(=O)N[C@@H](C)C(N)=O)[C@@H](C)OP(=O)(O)O has a binding enthalpy of -14.5 ± 0.09 kcal/mol (polo-box domain binding, isothermal titration calorimetry; concentration not given, 25 °C).
For O=C(Cc1ccc(OCc2ccccc2)cc1)NC1(C(=O)O)CCN(C(=O)c2ccc(-c3cccc(Cl)c3)cc2)CC1, “activity vs control” read 91% (enzyme activity, inhibitor; 10 µM).
For C[C@H]1CN(C(=O)c2cn(-c3ccnc(N)n3)c3cc(C#CC4(O)CCCCC4)ccc23)CCN1, the inhibition was 0% (enzyme activity, inhibitor, FRET; 1 µM).
For Nc1ncc(-c2cc(-c3cnn(CC(F)(F)F)c3)ncc2F)nc1C(=O)NC1CNCC(F)C1 (stereo not drawn), the remaining activity was 96% (enzyme activity, inhibitor; 1 µM).
Cc1ccc(C)c(-c2ccc3nc(NC(=O)C4CCCCC4)nn3c2)c1 has a remaining activity of 78% (enzyme activity, Dundee kinase panel; 10 µM).
COc1c(Cl)cccc1Nc1c(-c2ccncc2C#C[C@@]2(C)CCCN2C(=O)/C=C/CN(C)C)[nH]c2c1C(=O)NCC2 gave a remaining binding of 69% (binding, competition with immobilised ligand; 3 µM).

Repeated from above:
With O=C(Nc1ccc(Oc2ncnc3[nH]cc(-c4ccccc4)c23)c(F)c1)c1c2n(n(-c3cc(F)ccc3F)c1=O)CCCC2 the inhibition was 15% (enzyme activity, inhibitor; 0.5 µM).
With C=CC(=O)N1CCCC(n2c(=O)c3ncccc3n(Cc3ccc(Oc4ccccc4)cc3)c2=O)C1 (stereo not drawn) the remaining binding was 73% (cell-free assay, competition with immobilised ligand; 1 µM).
